Results from different studies.
Parts stem from different laboratories: compare values within a part only. Substitutions count along the parent as printed.

Series 1 — technique: DHFR PCA, deep sequencing; matrix: yeast; added: (+)-ABA 0.11 µM; reference: wild-type fitted maximum; reading: higher = stronger binding
Target: ABI1, truncated, D143A, DHFR fusion (Arabidopsis thaliana)
Setting: methotrexate growth selection, single substitutions
Starting sequence: PYL1, truncated, DHFR fusion (Arabidopsis thaliana); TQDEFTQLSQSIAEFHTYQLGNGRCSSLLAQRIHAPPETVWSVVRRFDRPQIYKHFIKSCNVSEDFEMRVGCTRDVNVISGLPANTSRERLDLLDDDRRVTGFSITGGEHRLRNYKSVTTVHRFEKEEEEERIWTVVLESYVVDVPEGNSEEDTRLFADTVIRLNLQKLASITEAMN; partner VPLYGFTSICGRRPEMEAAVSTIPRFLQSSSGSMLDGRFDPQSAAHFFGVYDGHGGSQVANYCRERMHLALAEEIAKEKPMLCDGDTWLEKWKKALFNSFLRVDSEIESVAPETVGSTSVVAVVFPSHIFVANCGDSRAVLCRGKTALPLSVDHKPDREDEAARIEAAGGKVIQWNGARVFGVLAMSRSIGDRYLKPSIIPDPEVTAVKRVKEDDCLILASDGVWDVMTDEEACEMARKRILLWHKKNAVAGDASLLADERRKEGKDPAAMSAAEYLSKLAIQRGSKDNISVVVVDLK
Change | relative binding score
L156P | -0.895%
D153C | 0.261%
R113K | 50.5%
S59H | 6.78%
C25P | -3.58%
I172N | -1.26%
S171E | 54.5%
V121F | -3.94%
V40A | -0.882%
V121G | -5.24%
R132W | 1.82%
C25G | -3.17%
D97I | 11.2%
R123T | 29.5%
P146T | 13.6%
F47S | -2.37%

Series 2 — technique: RNA Bind-n-Seq; form: RNA; matrix: in vitro; tested at: 365 nM; reference: no-protein control; reading: higher = stronger binding
Target: RNA binding protein fox-1 homolog 2, RRM domain, GST-SBP tag (RBFOX2, Homo sapiens, UniProt O43251-10, residues 100-194)
Setting: natural RNA segment, single round, ends assumed
Construct (chain): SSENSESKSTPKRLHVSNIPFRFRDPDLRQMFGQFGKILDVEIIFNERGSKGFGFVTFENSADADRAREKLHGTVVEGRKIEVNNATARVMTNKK
Strand | RBNS enrichment (R)
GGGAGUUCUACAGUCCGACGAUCGGGUAACAGCCUUGGGGAGGGUGCAGAGCUCUGCAGAGCCAUGGGCCAGGUGGGGCUGCCUCAGUCCUGUCCCCUUGGGCACUGAGGAGAGGGGCCCAUUCACCUUUCUCUGGAAUUCUCGGGUGCCAA | 0.335
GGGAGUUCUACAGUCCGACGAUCUCUGUUUGAAGAGCAUCAUUGCUAACUAGCAUGAAGCAGAGGGCAAUGAUGCCUGUAAAUAUGAAAAUGUGCCUGUAAGAGUAACAGGUAUCGCUGGGCAGUGGUGGCACUGGAAUUCUCGGGUGCCAA | 3.61
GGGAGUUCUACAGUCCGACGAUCCCUCUUUGAGAAAAUGCACAAAGCCCUGGGAGAUGACAAGCACAAGGACUGACUCAAGCUGUGUCUUUCAGACCAAGGAACAUCAGAGAAGCUGUGGGGCUGCCUGCCAGUGGAAUUCUCGGGUGCCAA | 1.46
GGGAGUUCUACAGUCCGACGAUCUGUGCUGACAUUAGCAUUCACCCUGUUGGAUAGGUUAGCUUCCCGAGACAUCUCCUUCCACCAUUCCCCACUUCUGCCACCUGCUGCUCUUCUCUGUCCUUAGUUGUGAGUGGAAUUCUCGGGUGCCAA | 0.72
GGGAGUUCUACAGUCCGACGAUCUAAGAAAAAUUUAAACAGUUUAAGAUUAUAUAAUUUUUUUUUCUUUUCUAUAUUGAGGUGGCCACCAUACUAAUAUUCUAAAUUUUCAAUAUUUGAACUUUUAACUCUUGUGGAAUUCUCGGGUGCCAA | 0.826
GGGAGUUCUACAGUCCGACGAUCAGACGACUGUGGUGUGCAGUGGUGCUCUGGGAGUGGAGACUUCCUCUGUUCUCAGAGACUCACCCCCAGCCCUGACCCUAGAAUUUAGGGAUAGCCAGGAAGUUUCUAGUUGGAAUUCUCGGGUGCCAA | 0.223
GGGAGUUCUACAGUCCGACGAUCAGAGGUAUGAGGCUGCAGAACCGGAGAGAUUUUCCUCUGUGCAGUGCUCUCUGGCUAAAGUCACGGUCAAACCUAAACACCGAGCCUCAUUAACCCAAGUGAACCAACCAUGGAAUUCUCGGGUGCCAA | 0.237
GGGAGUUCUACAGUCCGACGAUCGUGUCAGAAAUAAAGUGUUCGUGCUUUUCCUUGUCAGGAGUCCCGUGUUUGUCACUUGUUGUGUGGUUUUAUGUUUCCCGCUGUGUGAGCAUAAACACUGUGCAGUUUUCUGGAAUUCUCGGGUGCCAA | 0.347

Series 3 — target: CCNE1, cyclin fold, Cln2 fusion (human); technique: yeast growth competition, sequencing; matrix: yeast; setting: weak parent motif; reference: not given; reading: higher = stronger binding
Starting sequence: CDC6 docking peptide (human); TLKGRRLVFDNQL
Change | normalised enrichment score
TLKGRRLKFDNQL [V8K] | 0.31
TLKGRRTVFDNQL [L7T] | -0.239
TLKQRRLVFDNQL [G4Q] | 0.556
WLKGRRLVFDNQL [T1W] | 1.07
TVKGRRLVFDNQL [L2V] | 0.705
TLKGRRVVFDNQL [L7V] | 0.21
TLKGRRLVFDGQL [N11G] | 0.95
TLKGPRLVFDNQL [R5P] | -0.0982
TLKGRRLVLDNQL [F9L] | 0.252
TLKGRRLVFDNQR [L13R] | 0.397
TLKGRRAVFDNQL [L7A] | 0.265
TLIGRRLVFDNQL [K3I] | 1.01
TLKGRRRVFDNQL [L7R] | 1.05
THKGRRLVFDNQL [L2H] | 0.276
TLKGRRLIFDNQL [V8I] | 0.828
TLKGRRLVHDNQL [F9H] | -0.189
TLKGRRLVFDSQL [N11S] | 0.319
TLKGRRLVFDNFL [Q12F] | 0.0946
TLKGRRLVFDNQK [L13K] | -0.239
TLDGRRLVFDNQL [K3D] | 0.37
LLKGRRLVFDNQL [T1L] | 0.151
TLKGTRLVFDNQL [R5T] | 0.846
TLKGRHLVFDNQL [R6H] | -0.0601
TLKGRRCVFDNQL [L7C] | -0.251
TLKGRRLVNDNQL [F9N] | -0.167

Further values, each from its own experiment
Substance | target | test | test system | conditions | scale | endpoint | value
PhoQ, residues 284 288 289 292 302 303 SVTLVV | PhoP, residues 12 14 15 18 19 ICWRQ (Escherichia coli, UniProt P23836) | Sort-seq, measured: YFP reporter | E. coli | PhoQ-PhoP variant library, added: 10 µM Mg2+ | reference: high Mg2+ state, higher = stronger signaling | fold induction | 7.01

Some of these lines once more (series 3):
Change | normalised enrichment score
TLKGRRLIFDNQL [V8I] | 0.828
TLKGRRLVHDNQL [F9H] | -0.189
TLKGRRLVFDSQL [N11S] | 0.319
TLKGRRLVFDNFL [Q12F] | 0.0946
TLKGRRLVFDNQK [L13K] | -0.239
TLDGRRLVFDNQL [K3D] | 0.37
LLKGRRLVFDNQL [T1L] | 0.151
TLKGTRLVFDNQL [R5T] | 0.846
